# Published values of several laboratories.
# Compare with care: the assays were run in different laboratories. ± marks the error that the study gave.
Compound,test,system,conditions,Cmax
OCc1ncc2n1-c1ccc(Cl)cc1C(c1ccccc1F)=NC2,,"human, plasma","7.5 mg midazolam, day 12, arithmetic mean, added: amenamevir 400 mg",17 ng/mL
COc1ccc(C[C@@H]2NC(=O)[C@H]([C@@H](C)O)NC(=O)[C@@H]3[C@@H]4CCN3C(=O)[C@@H]3Cc5cn(c6ccc(F)cc56)CCCCCCN(Cc5ccc(cc5)CCNC(=O)[C@]5(C)CCCN5C2=O)C(=O)CCC(=O)N[C@@H](C)C(=O)N[C@H](CNC(=O)CCCCC[N+](C)(C)C)C(=O)N[C@@H](Cc2cccc(c2)CNC(=O)CO4)C(=O)N3)cc1,,"human, plasma","oral, 40 mg, high-fat breakfast 30 min before, added: sodium caprate 720 mg",3.5 nM
CC(C)C[C@H](NC(=O)[C@H](CCc1ccccc1)NC(=O)CN1CCOCC1)C(=O)N[C@@H](Cc1ccccc1)C(=O)N[C@@H](CC(C)C)C(=O)[C@@]1(C)CO1,,"human, plasma","intravenous, 20 mg/m^2 over 10 min, cycle 1 day 1",1530 ± 407 ng/mL
N.N.O=C([O-])C1(C(=O)[O-])CCC1.[Pt+2],measured: non-protein-bound platinum,"human, plasma ultrafiltrate","target AUC 3, median",18000 ng/mL
Cc1ncc2n1-c1ccc(Cl)cc1C(c1ccccc1F)=NC2,,"human healthy subjects, plasma","oral, 2 mg, alone, fed, geometric mean, added: omeprazole 20 mg",7.4 ng/mL
Cc1ncc2n1-c1ccc(Cl)cc1C(c1ccccc1F)=NC2,,"human, plasma","oral, 2 mg, day 1, single dose alone, geometric LS mean",9.2 ng/mL
O[C@H]1CCCN[C@@H]1CCCn1cnc2c(Cl)c(Cl)ccc21,,"human, UGT2B7 NN phenotype, plasma","oral, 150 mg, single dose",242 ng/mL
CCN(CC)C(=O)[C@@H]1C=C2c3cccc4[nH]cc(c34)C[C@H]2N(C)C1,,"human, plasma","dose not given, after placebo pretreatment",2 ng/mL
Cn1ncc(-c2nc(N[C@H]3CC[C@H](N)CC3)ncc2Cl)c1CC1CC1,HPLC-MS/MS,human patients,"oral, 1 mg, day 1",1.14 ng/mL
C[C@H](NC(=O)c1c(C(F)F)nn(C)c1Oc1cccc(C(F)(F)F)c1)c1ccc(C(=O)O)cc1,,"human, plasma","750 mg, cycle 1 day 8, mean",1000 ng/mL
OCc1ncc2n1-c1ccc(Cl)cc1C(c1ccccc1F)=NC2,,"healthy human volunteers, plasma","5 mg single dose, day 1, fed, given alone",6.4 ng/mL
CC(=O)c1c(C)c2cnc(Nc3ccc(C4CCN(CCS(C)(=O)=O)CC4)cn3)nc2n(C2CCCC2)c1=O,,"human, plasma","oral, 75 mg twice daily, day 1, single dose, added: letrozole",149 ng/mL
CC(C)[C@H](N)C(=O)NCCCS(=O)(=O)O,,"human, plasma","oral, 265 mg twice daily, week 65, steady state",5600 ng/mL
CCC(CC)COC(=O)[C@H](C)N[P@](=O)(OC[C@H]1O[C@@](C#N)(c2ccc3c(N)ncnn23)[C@H](O)[C@@H]1O)Oc1ccccc1,,"human, plasma","intravenous, 100 mg single dose",2410 ng/mL
N.N.O=C([O-])C1(C(=O)[O-])CCC1.[Pt+2],"ICP-MS platinum, measured: platinum","human patients, plasma","dose not given, carboplatin target AUC 4, cycle 1 day 1",30000 ng/mL
CC(=O)C[C@@H](c1ccccc1)c1c(O)c2ccccc2oc1=O,,human,"dose not given, alone",530 ng/mL
O=c1ccc2ncc(=O)n3c2n1C[C@H]3CN1CCC(NCc2cc3c(cn2)OCCC3)CC1,,"healthy human volunteers, plasma","oral, 1500 mg single dose, arithmetic mean, alone",3940 ng/mL
O=C(O)C(F)(F)C(F)(F)C(F)(F)C(F)(F)C(F)(F)C(F)(F)C(F)(F)F,two-compartment model,"human, plasma","oral, 50 mg weekly",27200 ng/mL
OCc1ncc2n1-c1ccc(Cl)cc1C(c1ccccc1F)=NC2,,"human, plasma","oral, 2.5 mg, day 1",3.7 ng/mL
OCc1ncc2n1-c1ccc(Cl)cc1C(c1ccccc1F)=NC2,,"humans, plasma","3 mg of midazolam, midazolam alone",3.9 ng/mL
CO[C@H]1/C=C\C=C(/C)C(=O)NC2=CC(=O)C(N)=C(C[C@@H](C)C[C@H](OC)[C@H](O)[C@@H](C)/C=C(\C)[C@@H]1OC(N)=O)C2=O,,"human, plasma",400 mg/m2,3380 ng/mL
Cc1ncc2n1-c1ccc(Cl)cc1C(c1ccccc1F)=NC2,,"human, plasma","oral, 2 mg, day 1",8.32 ng/mL
COc1ccc(F)cc1C(=O)NCc1ccc(-c2nn([C@@H](C)C(F)(F)F)c(N)c2C(N)=O)cc1,,"human, plasma","oral, 200 mg once daily, added: intravenous midazolam",8620 ng/mL
OCc1ncc2n1-c1ccc(Cl)cc1C(c1ccccc1F)=NC2,CYP3A4 probe metabolite,"human, plasma","oral, 2 mg midazolam, day -7, probe cocktail alone, geometric mean",45.2 ng/mL
OCc1ncc2n1-c1ccc(Cl)cc1C(c1ccccc1F)=NC2,,human,"dose not given, metabolite of midazolam, added: midazolam alone",5.43 ng/mL
CNC(=O)c1c(C)oc2cc(Oc3ccnc4cc(OCCN5CCOCC5)ccc34)ccc12,,"human, fasted","concentration not given, mean",34.4 ng/mL

# A few entries again:
Compound,test,system,conditions,Cmax
O=c1ccc2ncc(=O)n3c2n1C[C@H]3CN1CCC(NCc2cc3c(cn2)OCCC3)CC1,,"healthy human volunteers, plasma","oral, 1500 mg single dose, arithmetic mean, alone",3940 ng/mL
CO[C@H]1/C=C\C=C(/C)C(=O)NC2=CC(=O)C(N)=C(C[C@@H](C)C[C@H](OC)[C@H](O)[C@@H](C)/C=C(\C)[C@@H]1OC(N)=O)C2=O,,"human, plasma",400 mg/m2,3380 ng/mL
COc1ccc(C[C@@H]2NC(=O)[C@H]([C@@H](C)O)NC(=O)[C@@H]3[C@@H]4CCN3C(=O)[C@@H]3Cc5cn(c6ccc(F)cc56)CCCCCCN(Cc5ccc(cc5)CCNC(=O)[C@]5(C)CCCN5C2=O)C(=O)CCC(=O)N[C@@H](C)C(=O)N[C@H](CNC(=O)CCCCC[N+](C)(C)C)C(=O)N[C@@H](Cc2cccc(c2)CNC(=O)CO4)C(=O)N3)cc1,,"human, plasma","oral, 40 mg, high-fat breakfast 30 min before, added: sodium caprate 720 mg",3.5 nM
